{"data": "Experimental data pooled from the literature", "note": "Every numbered part comes from another study and shows a few of its results, in no order."}
{"data": "Series 1", "target": "Sal-like protein 4, full length isoform B (SALL4, Homo sapiens, UniProt Q9UJQ4-2, residues 1-616)", "method": "universal PBM", "molecule type": "double-stranded DNA, one strand shown", "sample": "in vitro", "tested at": "not given", "setting": "8-mer, flanks averaged, mean of replicates", "direction": "higher = stronger binding"}
{"Sequence": "TACAGCCA", "E-score": -0.0454}
{"Sequence": "AGGCGTCA", "E-score": -0.179}
{"Sequence": "CAACTTAA", "E-score": 0.139}
{"Sequence": "ATGATCGA", "E-score": 0.146}
{"Sequence": "ATCAAAGA", "E-score": 0.113}
{"Sequence": "GCCTGCGC", "E-score": -0.34}
{"Sequence": "CGTGCTAG", "E-score": -0.116}
{"Sequence": "AATTACGA", "E-score": 0.283}
{"Sequence": "AGGCTGGG", "E-score": -0.286}
{"Sequence": "ACATTAGC", "E-score": -0.0158}
{"Sequence": "AGAGGAAA", "E-score": 0.0624}
{"Sequence": "GGAGTTTA", "E-score": 0.16}
{"Sequence": "GTAGCCAA", "E-score": -0.0171}
{"Sequence": "CATAAGGG", "E-score": 0.141}
{"Sequence": "GAGGACCA", "E-score": -0.161}
{"Sequence": "AGCCTGTC", "E-score": -0.255}
{"Sequence": "AAAGCTGC", "E-score": -0.165}
{"Sequence": "CGTAACCC", "E-score": -0.168}
{"Sequence": "ACGTACAA", "E-score": 0.11}
{"Sequence": "AGCTCGGC", "E-score": -0.141}
{"Sequence": "AGTCCAAC", "E-score": -0.213}
{"Sequence": "CCACTTCC", "E-score": -0.0999}
{"Sequence": "CTAATGAA", "E-score": 0.149}
{"Sequence": "GTTGTCAA", "E-score": -0.00388}
{"data": "Series 2", "target": "TAR DNA-binding protein 43, full length, His tag (TARDBP, Homo sapiens, UniProt Q13148, residues 1-414)", "method": "RNA Bind-n-Seq", "molecule type": "RNA", "sample": "in vitro", "tested at": "20 nM", "setting": "6-mer, flanks averaged, single round", "with": "150 mM KCl", "reference": "input library", "direction": "higher = stronger binding"}
{"Sequence": "CACUUU", "6-mer enrichment (R)": 0.621}
{"Sequence": "UACGGU", "6-mer enrichment (R)": 0.772}
{"Sequence": "GUGGCU", "6-mer enrichment (R)": 1.37}
{"Sequence": "CCGCUA", "6-mer enrichment (R)": 0.63}
{"Sequence": "UAGGAG", "6-mer enrichment (R)": 1.52}
{"Sequence": "CGACUG", "6-mer enrichment (R)": 0.896}
{"Sequence": "UAACCG", "6-mer enrichment (R)": 0.649}
{"Sequence": "CCAAAA", "6-mer enrichment (R)": 0.645}
{"Sequence": "GUCGCG", "6-mer enrichment (R)": 1.53}
{"Sequence": "AGCGCG", "6-mer enrichment (R)": 1.58}
{"Sequence": "AACGUU", "6-mer enrichment (R)": 0.554}
{"Sequence": "UUUCAC", "6-mer enrichment (R)": 0.562}
{"Sequence": "GACCGA", "6-mer enrichment (R)": 0.879}
{"Sequence": "AGAGGC", "6-mer enrichment (R)": 1.57}
{"data": "Series 3", "target": "Protein C-ets-1 (ETS1, Homo sapiens, UniProt P14921, residues 1-441, full length assumed)", "method": "protein-binding microarray", "molecule type": "double-stranded DNA, one strand shown", "sample": "in vitro", "tested at": "not given", "setting": "k-mer, scored over probes, only values ≥0.25", "direction": "higher = stronger binding", "Residues (chain)": "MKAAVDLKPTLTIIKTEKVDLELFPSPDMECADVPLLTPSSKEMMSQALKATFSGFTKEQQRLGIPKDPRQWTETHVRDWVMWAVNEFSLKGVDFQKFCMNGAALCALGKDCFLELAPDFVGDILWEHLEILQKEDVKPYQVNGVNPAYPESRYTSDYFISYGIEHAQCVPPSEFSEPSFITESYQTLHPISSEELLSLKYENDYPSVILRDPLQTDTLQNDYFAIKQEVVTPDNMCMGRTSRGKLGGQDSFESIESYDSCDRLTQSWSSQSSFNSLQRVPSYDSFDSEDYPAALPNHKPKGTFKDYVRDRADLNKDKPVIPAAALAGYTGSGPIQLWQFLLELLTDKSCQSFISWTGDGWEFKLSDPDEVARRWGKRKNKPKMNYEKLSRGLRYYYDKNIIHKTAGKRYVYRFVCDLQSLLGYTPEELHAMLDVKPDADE"}
{"Sequence": "GCAGGAAC", "E-score": 0.379}
{"Sequence": "GGCCCGGA", "E-score": 0.372}
{"Sequence": "CGGATCCA", "E-score": 0.304}
{"Sequence": "AGGATGGG", "E-score": 0.32}
{"Sequence": "ACTGCGGA", "E-score": 0.295}
{"Sequence": "CCTGTTCC", "E-score": 0.262}
{"Sequence": "CGAAAGGA", "E-score": 0.267}
{"Sequence": "ATACATCC", "E-score": 0.373}
{"Sequence": "ACGGGACA", "E-score": 0.267}
{"Sequence": "GCAGGAAA", "E-score": 0.443}
{"Sequence": "GGAAACAA", "E-score": 0.363}
{"Sequence": "GACATCCC", "E-score": 0.276}
{"Sequence": "CTTCCGAC", "E-score": 0.442}
{"Sequence": "CCGGTAGA", "E-score": 0.258}
{"Sequence": "GGACGTTA", "E-score": 0.307}
{"Sequence": "CCGGAATC", "E-score": 0.419}
{"Sequence": "AAGGATAT", "E-score": 0.259}
{"Sequence": "AGGAAACG", "E-score": 0.43}
{"Sequence": "CATTCCGG", "E-score": 0.37}
{"Sequence": "ACGCATCC", "E-score": 0.424}
{"data": "Series 4", "target": "RNA binding protein fox-1 homolog 2, RRM domain, GST-SBP tag (RBFOX2, Homo sapiens, UniProt O43251-10, residues 100-194)", "method": "RNA Bind-n-Seq", "molecule type": "RNA", "sample": "in vitro", "tested at": "365 nM", "setting": "natural RNA segment, single round, ends assumed", "reference": "no-protein control", "direction": "higher = stronger binding", "Residues (chain)": "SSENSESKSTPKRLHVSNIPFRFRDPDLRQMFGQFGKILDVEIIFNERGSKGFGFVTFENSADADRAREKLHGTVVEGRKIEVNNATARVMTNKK"}
{"Sequence": "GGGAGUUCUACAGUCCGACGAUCUGCUAGAAUAAAGCAGAAGGGCUUUCCUAACAUGCUUUAGAGCUUUUAUUGCUUCUUACUGAUACUGACUUAGAAAGCUUUCUGGGUUUUGUAUUUGUUUUAAGAAACAUUGGAAUUCUCGGGUGCCAA", "RBNS enrichment (R)": 0.248}
{"Sequence": "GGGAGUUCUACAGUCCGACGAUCUUUUUUAUAAAGCAAAAACGUGCCGUUUAAACCACUGGAUCUAUCUAAAUGCCGAUUUGAGUUCGCGACACAAUGUACUGCGUUUUCAUUCUUGUAUUUGACUAUUUAAUUGGAAUUCUCGGGUGCCAA", "RBNS enrichment (R)": 0.378}
{"Sequence": "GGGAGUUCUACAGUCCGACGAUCUUUAUAAAAUCAUUUUCAAGUUUCUUCAGAUGGGAAGGUGAUUCUGUGACCUUUCUUAUUUCCCUGUUAUCAAGGAAACAGUUUUACCUAUUGAGCUAUAAAAAAAAAAAUGGAAUUCUCGGGUGCCAA", "RBNS enrichment (R)": 0.545}
{"Sequence": "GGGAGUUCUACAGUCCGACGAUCCUCAGGGCCAAGCGGGGGCGUGGCUGGCCUUUCAGGUCCAGGCCAGUGGGCCUGGUAGCACAUGUCUGUCCUCAGAGCAGGGGCCAGAUGAUUUUCCUCCCUGGUUUGCAUGGAAUUCUCGGGUGCCAA", "RBNS enrichment (R)": 4.56}
{"Sequence": "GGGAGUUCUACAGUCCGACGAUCCUUCAUGGAGGGUGGUAACAGCACCUCAGUCCAGCCAAAAUGUUUAGAAACACUCAGUCUCUGGUCCCAGAGGAUGGCUUCUCAGGGCAUGCCACAAGUUAAAGGUCACCUGGAAUUCUCGGGUGCCAA", "RBNS enrichment (R)": 0.612}
{"Sequence": "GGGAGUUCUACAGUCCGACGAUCUUUUUAGAAGUAUUAUGUGGUAUUUUACUGUGUAUCACUUCUGUGGUAAACAUGUGAAGUCCUUUGGCUUAGUCAUACUUCAUAACUUUUGAACGUUGGGUUUUUUGUUGUGGAAUUCUCGGGUGCCAA", "RBNS enrichment (R)": 0.359}
{"Sequence": "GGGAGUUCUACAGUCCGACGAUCCAGCGUUAUGGUGGGAGCCGCUUCCUGUUCUGUGAACCCCAGGCAGGCUUGACUUCCUAUGGUGUUAUUCUGGAACAUGCUGCCACGAGUCCCGGCUUUUGGAGUCCCAGUGGAAUUCUCGGGUGCCAA", "RBNS enrichment (R)": 0.269}
{"Sequence": "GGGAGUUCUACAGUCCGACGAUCUAUUCUCUAAAGGGCUCUUGUCUGUUCAUUCAUCUCCCAUUCGUUCACUUAGUCAACAAGUGAUAAGUAAGUAACUUUCAUGUGCUAGGUGCUGUUAGACACAGAAGGUAUGGAAUUCUCGGGUGCCAA", "RBNS enrichment (R)": 0.525}
{"Sequence": "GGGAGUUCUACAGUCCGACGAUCUGCCAAAGGGAUGUGUUAGAAGGCUGCCUUCUCAUGCGCAUUGUCACUUGGAUCUUGUGGUGAGGACGGCCCCAUCUUUCUUGCCACAGAUUGAGGCCACUUUUGAGCAAUGGAAUUCUCGGGUGCCAA", "RBNS enrichment (R)": 0.257}
{"Sequence": "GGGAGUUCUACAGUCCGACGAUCUUUACCAAAUUUUACCUAGAAUUUUAGGACCAAAUGGUUCUCACUCUUUAUGCUGCAAAGACCUGGAUGAUGUUUGGUAACUAUAGAAAAAUAGAAAUUACACUCAGGAUUGGAAUUCUCGGGUGCCAA", "RBNS enrichment (R)": 0.476}
{"Sequence": "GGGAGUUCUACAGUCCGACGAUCUGGUAAAUUUAACUGAGGAAUUAAAUCCUUGUUAAUUUUGGUGUAAAGAUUUGUAUCCUGGCCUGUUUAUUCAGGUGGGAGAUGUUCUGUAUAAUUUUGAGGUAUAGCUUUGGAAUUCUCGGGUGCCAA", "RBNS enrichment (R)": 0.454}
{"Sequence": "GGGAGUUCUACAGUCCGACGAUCUUUGUUGCUUGUUGAGUAAGCAGCUGGCACGCCUGUGGAGGAGGAGGCCUUGCCUCAACGUUCCUGGGUCAGUCCCGAGUUCUCCCAAUGGCUUUGUGAAUGUAAAUAAGUGGAAUUCUCGGGUGCCAA", "RBNS enrichment (R)": 1.52}
{"note": "Repeated from above (series 2):"}
{"Sequence": "CCAAAA", "6-mer enrichment (R)": 0.645}
{"Sequence": "GUCGCG", "6-mer enrichment (R)": 1.53}
{"Sequence": "AGCGCG", "6-mer enrichment (R)": 1.58}
{"Sequence": "AACGUU", "6-mer enrichment (R)": 0.554}
{"Sequence": "UUUCAC", "6-mer enrichment (R)": 0.562}
{"Sequence": "GACCGA", "6-mer enrichment (R)": 0.879}
